Published values collected from several papers.
Each numbered part is a random draw from the data of one study; scales do not carry over between parts.

Study 1
Target: Histone acetyltransferase KAT6A, both winged helices, GST fusion (KAT6A, Homo sapiens, UniProt Q92794, residues 1-181)
Method: protein binding microarray
Form: double-stranded DNA, one strand shown
Matrix: in vitro
Concentration: not given
Setting: 8-mer, flanks averaged, mean of 2 arrays, mostly near background
Baseline: not given
Direction: higher = stronger binding
Construct (chain): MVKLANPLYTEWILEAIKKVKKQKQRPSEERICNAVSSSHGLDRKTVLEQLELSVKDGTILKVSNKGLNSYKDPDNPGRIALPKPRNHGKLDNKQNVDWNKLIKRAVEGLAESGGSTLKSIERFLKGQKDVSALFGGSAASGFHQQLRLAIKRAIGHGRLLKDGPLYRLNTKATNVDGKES
Sequence	E-score
AACTAAAC	-0.0754
AAACTCTT	-0.2
GCCTCTGA	-0.169
AAGCTGCT	0.0126
TAACACTA	0.00819
ACATGGCC	-0.0568
CCCGGCAC	0.133
GAGCACGC	0.127
TACAACGA	-0.107
CGTTGTAC	0.124
AGGCGACC	-0.0264
GATACGGA	0.139
CAACGAGC	-0.0378
ATTAAGGC	-0.16
AAGAACGT	0.149
TAGTGCAA	-0.00228
ATTAGTGG	-0.127
AGATCAAG	-0.124
ATAAAGCC	0.0599
AGTCCGGC	0.174
ATGGGTAC	-0.0598
CTACGTAA	0.0645

Study 2
Target: Phosphate system positive regulatory protein PHO4, full length, GST-tagged (PHO4, Saccharomyces cerevisiae, UniProt P07270, residues 1-312)
Method: competition protein-binding microarray
Form: double-stranded DNA, one strand shown
Matrix: in vitro
Concentration: 2 µM
Setting: whole 60-bp probe, lowest competitor level
Together with: Cbf1 competitor, 0.05 µM
Direction: higher = stronger binding
All sequences stand within: … GTCTTGATTCGCTTGACGCTGCTG
Residues (chain): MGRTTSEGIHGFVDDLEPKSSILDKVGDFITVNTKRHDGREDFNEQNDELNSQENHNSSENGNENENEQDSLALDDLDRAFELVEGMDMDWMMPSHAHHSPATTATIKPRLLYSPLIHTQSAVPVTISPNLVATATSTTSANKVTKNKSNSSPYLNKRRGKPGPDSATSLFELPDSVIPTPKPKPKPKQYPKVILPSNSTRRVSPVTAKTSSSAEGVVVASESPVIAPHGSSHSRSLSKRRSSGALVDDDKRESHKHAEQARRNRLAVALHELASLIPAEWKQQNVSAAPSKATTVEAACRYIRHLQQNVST
Sequence	fluorescence intensity
ATATGATAAAATATAGATATATACCCTTAGATATCG	3490 a.u.
TCGCGAGAATTTGGGCACATGTGTGCCGGAATGTAT	12400 a.u.
TGTTAGGTTTACCAGAACGTGGCCGATTTCTGCCAG	11900 a.u.
CTTTCCCGATCTTGAAGTGTGGGTGTAGCACATTTG	5790 a.u.
AGGCGGGTATTCCACCTGGTGTGTTCAACATTGTAT	5580 a.u.
AAAGCGGTAATTTGGTTTGTGGGTGCAGATATCTAT	4210 a.u.
CAGTTAATTTTGGATCTCGTGACGGGTAATCTTCTT	7040 a.u.
GCTGGAATGCCGCGACAGATGTAACAAGAATGTGTT	5020 a.u.
CCCAAGCGCTAGCATCACAAACGGCGAACTTCCCAT	2920 a.u.
GCCACTGAGAATGAGCGCGTGGGACAGAAACGGTGG	13100 a.u.
AAAGCGGTAATTTGCGGAGTGGGTGCAGATATCTAT	4300 a.u.
TGACATTGCCACCATCACGTTGTCAAACTTTGCCGG	11000 a.u.
CTGTTCCTAAGTTATTTCGTGGGACAAGCGGACATG	6320 a.u.
GGCCAAAGTGTTCGTCACAAAACAGTGGTCCTATAT	2980 a.u.
CGGGGTTAAGTTTGGGTCGTGGGTGGCTTGCAGCAG	9270 a.u.
AGGAAGAAAGAGCTGCTCGTGTTGGTGCCAAGATCG	7480 a.u.
AAATTACTAAGTTCACACGTGTTTTACCCCGTATGA	18800 a.u.
GAGTCATAAGCATAACATGTGGTTCCAGAAGCACTT	11000 a.u.
TTGCCGTGTGAAGGCAACGTGATGGCCGCTACACTA	10400 a.u.
TATTGTTTTCGTTATCGCGTGGCAAGATATCTTGCG	8920 a.u.
CGTCCTAGTGATTGTCACGGTACTTCCATGAGGAAG	5080 a.u.
CAAAAACTAAACTGGCACGCTAGAGAAAAGTAGTCA	6810 a.u.
CACTTAAGCCTTGGCAACGTGTTGAACCAAGTCGAC	12200 a.u.
CATACCCAACCTTGGCCTGTGGGTGAAGATATTTGT	4240 a.u.
CAGTCAAAAGAACAGCATCGATGTCCAATGGGTCTA	3080 a.u.

Study 3
Target: TAR DNA-binding protein 43, full length, His tag (TARDBP, Homo sapiens, UniProt Q13148, residues 1-414)
Method: RNA Bind-n-Seq
Form: RNA
Matrix: in vitro
Concentration: 20 nM
Setting: 6-mer, flanks averaged, single round
Together with: 150 mM KCl
Baseline: input library
Direction: higher = stronger binding
Sequence	6-mer enrichment (R)
GUCCUA	0.628
UCACGG	0.991
GUUUGG	1.39
CAUAGA	0.652
AUUGUU	0.604
UUCUUU	0.644
UUCUCG	0.577
UUGCAC	0.658
CCCCUA	0.666
GGUUAU	0.825
ACCCAU	0.644
ACGGGA	2.19
CUUGUC	0.609
CUAAAG	0.693
UUUUAC	0.644
AUUCUA	0.566
CUAUGA	0.635
CAAAGC	0.633
AGUAUU	0.612
GUCCCC	0.714
UAUUCU	0.56
GCUCUC	0.608
AUAAUG	0.738
GUACUU	0.607
UGUCCG	0.797

Study 4
Target: RNA binding protein fox-1 homolog 2, RRM domain, GST-SBP tag (RBFOX2, Homo sapiens, UniProt O43251-10, residues 100-194)
Method: RNA Bind-n-Seq
Form: RNA
Matrix: in vitro
Concentration: 365 nM
Setting: natural RNA segment, single round, ends assumed
Baseline: no-protein control
Direction: higher = stronger binding
All sequences stand within: GGGAGUUCUACAGUCCGACGAUC … UGGAAUUCUCGGGUGCCAA
Residues (chain): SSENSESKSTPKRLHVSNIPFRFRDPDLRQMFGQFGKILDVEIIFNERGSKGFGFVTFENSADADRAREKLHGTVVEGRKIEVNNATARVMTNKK
Sequence	RBNS enrichment (R)
UUUUGGAUACUAGAAGUAUUAAUCUAUGGCUUUUCUCCCAGUAAAACCAUAGGCCUGAAGUUCACAUUGGGUCUUUAAAUCUUUUAGAUAUAUACUGGUCAUUUCAGAAA	0.319
GUUAGUUCUAGUCCAUAAUGGCCUUUGAGCAGCAAGCUUUCAGAAGAUUAUAUUUGAGGAUUGUAGCAGUUUCUUUGUUUCAGAUUGUCAGCUGACUUAAAAUGUUUGUG	0.457
UCUACCAUAGCCAUGUGGUGCAAUGCAAACUGCUGUAAUUCAAGAGAGGAAAUUUCCUCACCUCCCAAUUCUGUGUAAUCAAGAAUACCUCCUUAAUUCUGAGAGCAUGA	2.27
GCUGUUAAAAGUUGGUAUCAGUAAGAUUUGUGUUUUGUGAUAAUCCCUAAAUCAACAUACCACUUGUAAACUGAACUUCGAGAAAGAAACAUGAUGUUCAUUCUGUAAAU	0.356
UUAGAUAAUAACAAGUGAUUAAGAAAGGGGAGAUAUGGUUUUAUACUCAUAACAAUUUCCUGUGCCAUUCUCUGUACACAGAGGUGAUUCAUUUACUCUCCCAUUAGUAG	0.402
AACAAAGGAAGGACAGCUCAUUCCUCAUGGGCGAUCACUCCGCAUCUAUAGGGUCGAGCCUAGGGGAGCUUGAGGGAGGGCUGGGGCCUCCUUGUCCUGGAUUUCCAGCU	2.89
UUUGCAGCCACAUGGGACUUUUCUGGGUUGACAAGAGGAUGCUCUAGUCAUGUAAGCCACUAAGAUAGAAGGCCAGUCUCAGUUUCCCUAGGGAAGAGCCCAUCCUGGAG	0.643
CAAUCUCUUCAUAAUUUUGUUCUGUAAAAGAUGAACCUUUCCGAGUGAUGCAUUCAAACUGUCUAGCAAUAGAUCUUUUAAAACGAUGUAAAACCAUUCAGGGUAAUUUU	0.365
AAACAUUUCCUAAAGUUGAAGCAAUAGCUUCGUAGAUUCUUGGUUACUUUAUUUUUUUUAAUGCUUUACAUUUGAUACAACUAUUGAAGAUCAAUUUUAAAAAUAGCUUU	0.713
UAACUGGCAAGGGAUGAUGUCAGAUUCAGCCCAAGGUUCCUCCUCUCCUACCAAGCAGGAGGCCAGGAACUUCUUUGGACUUGGAAGGUGUGCGGGGACUGGCCGAGGCC	0.497
UCUUAUCUUGAGAGUUAGGAGCACCAUAGGAUAUGAUGGUCUAUGUGCUGCCAACAGGCUCCCCGAAGCGAGUCACAAACACAUACAGCAACACUACUUGAGAAUGGUAC	0.752
UAUGUGACAGUAGGAAGGAAUGGUUUCCCCUAACAAGCCCAAUGCACUGGUCUGACUUUAUAAAUUAUUUAAUAAAAUGAACUAUUAUCAAAUAAAACGUAUGAAUCAGU	0.731

Study 5
Target: RING finger protein unkempt homolog, zinc fingers 1-6, GST-SBP tag (UNK, Homo sapiens, UniProt Q9C0B0, residues 30-357)
Method: RNA Bind-n-Seq
Form: RNA
Matrix: in vitro
Concentration: not given
Setting: RNA with constant flanks, human and mouse sites, ends assumed
Baseline: input RNA pool
Direction: higher = stronger binding
All sequences stand within: GGGAGUUCUACAGUCCGACGAUC … CAACAGAGGAUUGAGCAUCA
Construct (chain): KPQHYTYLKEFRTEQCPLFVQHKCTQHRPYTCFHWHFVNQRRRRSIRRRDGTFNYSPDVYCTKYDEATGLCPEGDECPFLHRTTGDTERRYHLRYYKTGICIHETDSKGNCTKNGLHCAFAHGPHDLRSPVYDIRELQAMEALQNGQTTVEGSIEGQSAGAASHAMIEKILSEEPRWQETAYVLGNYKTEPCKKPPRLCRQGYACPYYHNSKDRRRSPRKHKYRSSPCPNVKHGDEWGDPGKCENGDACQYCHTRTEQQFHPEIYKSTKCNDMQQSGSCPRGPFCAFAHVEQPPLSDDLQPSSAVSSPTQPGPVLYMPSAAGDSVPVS
Sequence	bound/input enrichment [ratio]
UUAACACCGUUGAAGAACUUGGUGAAGAACAAGAUAGAGACUCAUCUUUUUGCCUUUGAGAUUUACUUUAGGAAAGAAAAGUUUCUUUUGAUGCUACAAUCAGUAAAGAGGGCAUUUGCU	0.295
GAGUGCCUUGAGGUAUACACAUGAAAACCAGGUUUCAAUGGUUGACAGAGUAGAGUAUUUAUACCAAGAGGGUAGAGGCGAAAGAAUUGGGUGUUCAAAGCCAGUCUUGACUUGAAGCAA	0.635
GCAGUGGUAAUUCAAAAUGAGAGGGUCCCCUGCCUCUAGAGUCAUCAUCUAAUUGGGGACAGGCAGACCUAGAUAAGAAAAGCAGAGAACUACUUUGGAAAACAGUUUAUCUGCUGUAAU	0.32
AGGGAAAGAAGCAAGCACAAGCUUUUACAGUAAAGCUUGUAAUCACAUGGGGACCAUACAAUCAUCCUAAAGGAUUUAGAAUUCAAGUGAAAAAACAAACAAACAAACAUUACUAUGUUA	0.51
UGUGAUGGGCAUUGAGCCACAUGUCUUCUGAGACUGAAUAUUGACAUUUUUGUUUCAAGUUAUGUUUUUAACAUUUAUUUCAGAACAAUAAAGAUUCAGAUUUGUGACAAAGGCCUUAAA	0.166
CUUUCUUUUUGGCCGUCUUUAAAAAAAUUUUUUUUUUUAAUCUAUAAAAUAGACAAGAGCUAGUUCUACAAUGUCCAAGUCAUUCCAGCAGUCAUCUCUCAGUAGGGACUCACAGGGUCA	0.818
GAUGGGAAAUGUGGACUUUACAAGUAUAUGUUAUAUAUACUUGCAAUGUGACAUGGUUCUGUAGAUCAUUUUAUAAUAAUAAAUAUUUUAAUUUAUCAUAACAUAUAAAAGAAACCUUUG	7.68
ACUCACUUUGACCCAAUGGGCAUCCGUACCGAUGCCCCUCUGAUGCAGUUUAAAUCCAUCUUGCUAAAGUACAGCACCCCCACUUACACUGGAGCACAAUCAGAAGGCCAGAUGCCGCCA	0.345
CCCGACCAGAAUACGAAGCACGAUGUACUCACGUAGUGAUAAAUGAGAUUACUCAGGAAGAAGAACGCAUUCCCUUUACUGCCUGGGGAAAAUGUAUACGGAUAACCCUCUGUGCCAGUG	0.183
GAUCCCCUGGAACUGGAAUUACAGACAGUUAUGAGCUGCCAUGAGGGUGCAAGGAAUUAAACCCAGCUCCUCUGGAAGAACAGCUAGUGCUCCUUACUGCCGAGCCACCCUUUAUUGUUU	0.212
ACUCCAAGACUGUGUUCGGGAGUCCUUGGAACUGUGGUCCAUGGUAAAGUUUUACAGGAGUUAGGACCUGGAAAUGUACAGAAAGAAGUCUCAUCUUCCUUUGACCACGUUAUCAAGGAG	0.0896

For quick reference, copied from above (study 3):
Sequence	6-mer enrichment (R)
UCACGG	0.991
AGUAUU	0.612
ACCCAU	0.644
GUCCUA	0.628
AUUGUU	0.604
UUCUCG	0.577
AUUCUA	0.566
GCUCUC	0.608
AUAAUG	0.738
GUCCCC	0.714
UAUUCU	0.56
